Measurements of several laboratories.
Each line is one published result; not all experiments were run side by side. ± gives the spread as reported. ≈ marks a conversion by molar mass, not a printed value.

[11CH3]N1CCN(CCCOc2ccc(=O)n(-c3ccc(Cl)c(Cl)c3)n2)CC1  maximum uptake (radiotracer; mouse BALB/c male, spleen; intravenous, 15 min): 13.3 ± 2.03 %ID/cc
C[C@H]1Nc2nc(=O)c3[nH]ccc3n2Cc2ccc(Cl)cc21  exposure ratio (rat, male, plasma; 125 mg/kg; relative to: rat over human 5 mg): not detected
CC(C)=CCC[C@](C)(O)[C@H]1CC[C@]2(C)[C@@H]1[C@H](O)C[C@@H]1[C@@]3(C)CC[C@H](O)C(C)(C)[C@@H]3CC[C@]12C  solubility (Lauroglycol CC; 72 h, 25 °C): 6870 ± 380 µg/mL (≈ 14.9 mM)
COc1cc2c(cc1OC)CN(CCCCn1ccc3cc(OCC[18F])ccc31)C2  uptake (ICR mice, male, lung; intravenous, 120 min): 3.41 ± 0.51 %ID/g
CC(C)c1cnc(-c2cc(Cl)ccc2F)cc1Nc1ccncc1C(=O)NC(CO)CO  patients with decreased appetite (patients, phase I monotherapy; oral, dose not given, grade 2): 2.4%
CCCC[C@H](NC(=O)CNC(=O)CNC(=O)CN1CCN(CC(=O)O)CCN(CC(=O)O)CC1)C(=O)N[C@H]1CC(=O)NCCCC[C@@H](C(N)=O)NC(=O)[C@H](Cc2c[nH]c3ccccc23)NC(=O)[C@H](CCCNC(=N)N)NC(=O)[C@@H](Cc2ccccc2)NC(=O)[C@H](Cc2c[nH]cn2)NC1=O [copper-64 labelled]  urinary excretion (C57 mouse female B16/F1 melanoma, urine; intravenous, 0.037 MBq, 0.5 h): 76.8 ± 1.19%
COC(=O)c1ccc(-c2cn(Cc3cc(Cl)ccc3O[11CH3])nn2)cc1  distribution volume VT (PET, 2TCM; rhesus macaque, hypothalamus; dose not given): 0.612 mL/cm³
CN1C(=O)[C@@H](Cc2ccc(O)c(I)c2)NC(=O)CNC(=O)[C@H](Cc2ccc3ccccc3c2)NC(=O)[C@H](CCCNC(=N)N)NC(=O)[C@H]1CCCNC(=O)c1ccc(CNC(=O)CN2CCN(CC(=O)O)CCN(CC(=O)O)CCN(CC(=O)O)CC2)cc1 [lutetium-177 labelled]  total absorbed dose (1; human, extrapolated from mouse, liver): 0.95 mGy/MBq
CCCCC/C=C/C=C/C(=O)NCC(C)C  relative error (rat plasma; 15 ng/mL, three freeze-thaw cycles low QC; relative to: nominal concentration): -2.67%
C[C@H]1C[C@@H](Oc2cccc(F)n2)CCN1Cc1cnc(N[11C](C)=O)s1  unchanged radioligand in plasma (rhesus monkey, plasma; dose not given, 30 min, pre-blocking condition): ~60%
O=C(CCc1ccc(CNC(C(=O)OC2CCCC2)C2CCCCC2)cn1)NO (stereo not shown)  Vd/F (human, plasma; oral, 20 mg, multiple doses, once daily, patients): 107 L
COc1ccc2cc(-c3ccc(-c4ccc(C)cn4)nc3)oc2c1  radiative decay rate constant (TCSPC; DMF): 0.38 ns⁻¹
CN1CCC[C@]1(C)/C=C/S(=O)(=O)NC(=O)Nc1c2c(cc3c1CCC3)CCC2  CL/F (human, plasma; oral, 25 mg single dose): 0.9 L/h
CC1(c2ccc([C@H]3C[C@@]4(C)[C@@H](CC[C@@]4(O)C(F)(F)C(F)(F)F)[C@@H]4CCC5=CC(=O)CCC5=C43)cc2)COC1  maximal oral bioavailability (human liver microsomes; 100 % absorption assumed): 8%
Nc1ncnc2c1nc(-n1nnc3c1CCC1C(CO)C1CC3)n2C1OC(CO)C(O)C1O (mixture of isomers)  average fluorescence lifetime (frequency-domain fluorometry; methanol): 0.7 ns
C#CCNC(=O)C(CC(C)(C)F)NC(c1ccc(-c2ccc(S(C)(=O)=O)cc2)cc1)C(F)(F)F (stereo not shown)  cysteine adduct formation (LC-MS UV trace; aqueous buffer; concentration not given, 23 h, pH 8.0, 37 °C, with: cysteine 10 mM): < 1%
CCCC[C@@H]1NC(=O)[C@@H](NC(=O)[C@H](CCC(=O)O)NC(=O)CNC(=O)CN2CCN(CC(=O)O)CCN(CC(=O)O)CCN(CC(=O)O)CC2)CCCCNC(=O)C[C@@H](C(N)=O)NC(=O)[C@H](C(C)C)NC(=O)[C@@H]2CCCN2C(=O)[C@H](CCCNC(=N)N)NC(=O)CNC(=O)[C@H](Cc2c[nH]c3ccccc23)NC(=O)[C@H](CCCNC(=N)N)NC(=O)[C@@H](Cc2ccccc2)NC(=O)[C@H](Cc2c[nH]cn2)NC(=O)[C@H](CCC(=O)O)NC1=O [gallium-67 labelled]  urine excretion (C57 mice, B16/F1 flank melanoma; intravenous, 0.037 MBq, 0.5 h): 77.33 ± 0.74%
CC(C)[C@H](NC(=O)CNC(=O)[C@H](CCC(N)=O)NC(=O)[C@H](C)N)C(=O)O  half-life (LC-MS/MS; human, male, plasma; intravenous, 10 mg/kg three times daily, day 3, first dose, 10 min infusion, geometric mean): 4.2 min
Cn1c(=O)oc2ccc(-c3ccc(CC(C#N)NC(=O)C4CNCCCO4)c(F)c3)cc21 (stereo not shown)  treatment-emergent adverse event incidence (item: alanine aminotransferase increased; human volunteers; oral, dose not given): 11.1%
CC[C@H](C)[C@H](NC(=O)[C@@H]1CCCN1C(=O)CNC(=O)[C@H](Cc1ccccc1)NC(=O)[C@H](CC(N)=O)NC(=O)[C@H](CC(N)=O)NC(=O)[C@H](CO)NC(=O)[C@H](CO)NC(=O)[C@H](Cc1c[nH]cn1)NC(=O)[C@@H](NC(=O)[C@H](CC(C)C)NC(=O)[C@H](Cc1ccccc1)NC(=O)[C@H](CC(N)=O)NC(=O)[C@H](C)NC(=O)[C@H](CC(C)C)NC(=O)[C@H](CCCNC(=N)N)NC(=O)[C@H](CCC(N)=O)NC(=O)[C@@H](NC(=O)[C@H](C)NC(=O)[C@@H]1CSSC[C@H](NC(=O)[C@@H](N)CCCCN)C(=O)N[C@@H](CC(N)=O)C(=O)N[C@@H]([C@@H](C)O)C(=O)N[C@@H](C)C(=O)N[C@@H]([C@@H](C)O)C(=O)N1)[C@@H](C)O)C(C)C)C(=O)N[C@@H](CC(C)C)C(=O)N[C@@H](CO)C(=O)N1CCC[C@H]1C(=O)N[C@H](C(=O)N[C@@H](CC(N)=O)C(=O)N[C@H](C(=O)NCC(=O)N[C@@H](CO)C(=O)N[C@@H](CC(N)=O)C(=O)N[C@H](C(=O)N[C@@H](Cc1ccc(O)cc1)C(N)=O)[C@@H](C)O)C(C)C)[C@@H](C)O  collision cross section (ion mobility mass spectrometry; ammonium acetate; pH 7.5, monomer ion charge +2): 551.8 ± 3.1 Å²
COc1ccc([C@@H]2CC(=O)c3c(O)cc(O[C@@H]4O[C@H](CO[C@@H]5O[C@@H](C)[C@H](O)[C@@H](O)[C@H]5O)[C@@H](O)[C@H](O)[C@H]4O)cc3O2)cc1O  relative error (rat plasma; 15.62 ng/mL, three freeze-thaw cycles; relative to: nominal concentration): 9.47%
Cc1ccc(OCC(=O)N(Cc2cccs2)c2ccn[nH]2)cc1  AUC(0-t) (female Sprague-Dawley rat, plasma; oral, 10 mg/kg, single dose): 7.86 ng·h/mL
CC(C)[C@H](NC(=O)[C@@H]1CCCN1C(=O)[C@H](CCCNC(=N)N)NC(=O)[C@H](CS)NC(=O)[C@H](Cc1c[nH]c2ccccc12)NC(=O)[C@H](CCCNC(=N)N)NC(=O)[C@@H](Cc1ccccc1)NC(=O)[C@H](Cc1c[nH]cn1)NC(=O)[C@H](CCC(=O)O)NC(=O)[C@H](CS)NC(=O)[C@H](CS)NC(=O)CNC(=O)[C@@H]1CC(=O)N[C@@H](CCCNC(=N)N)C(=O)NCC(=O)N[C@@H](CC(=O)O)C(=O)N[C@H](Cc2ccc(O)cc2)C(=O)N1)C(N)=O [technetium-99m labelled]  tumour-to-tissue ratio (C57 mice B16/F1 melanoma female; iv, 2 h, with: NDP-MSH blockade; relative to: tumour over muscle): 5.98
CN1CC[C@H](c2c(O)cc(O)c3c(=O)cc(/C=C/c4c(Cl)cccc4Cl)oc23)[C@H](O)C1  dissolved drug (USP paddle dissolution; phosphate buffer, 0.25% SLS; 60 min, pH 6.8): 84%
CNC(=O)N[C@]1(C)CCC[C@@]2(C)C3CC[C@@]4(C)C[C@]3(CCC21)CC4=O (single isomer, unassigned)  relative error (rat plasma; 400 ng/mL, freeze-thaw stability, three cycles; relative to: nominal concentration): 0.8%
CC(C)C[C@H](NC(=O)[C@H](CCCCN)NC(=O)CNC(=O)[C@H](CC(C)C)NC(=O)[C@@H](NC(=O)[C@@H]1CSSC[C@H](N)C(=O)N[C@@H](CO)C(=O)N[C@@H](CC(N)=O)C(=O)N[C@@H](CC(C)C)C(=O)N[C@@H](CO)C(=O)N[C@@H]([C@@H](C)O)C(=O)N1)C(C)C)C(=O)N[C@@H](CO)C(=O)N[C@@H](CCC(N)=O)C(=O)N[C@@H](CCC(=O)O)C(=O)N[C@@H](CC(C)C)C(=O)N[C@@H](Cc1c[nH]cn1)C(=O)N[C@@H](CCCCN)C(=O)N[C@@H](CC(C)C)C(=O)N[C@@H](CCC(N)=O)C(=O)N[C@H](C(=O)N[C@@H](Cc1ccc(O)cc1)C(=O)N1CCC[C@H]1C(=O)N[C@@H](CCCNC(=N)N)C(=O)N[C@H](C(=O)N[C@@H](CC(N)=O)C(=O)N[C@H](C(=O)NCC(=O)N[C@@H](CO)C(=O)NCC(=O)N[C@H](C(=O)N1CCC[C@H]1C(N)=O)[C@@H](C)O)[C@@H](C)O)[C@@H](C)O)[C@@H](C)O  AUC (ELISA; hairless male Sprague-Dawley rat, serum; subcutaneous, 3 µg): 6.72 ± 4.22 ng·h/mL
CC(C)(O)c1ncc([S@](N)(=O)=NC(=O)Nc2c3c(cc4c2CCC4)CCC3)s1  half-life (human, plasma; oral, 600 mg, single dose, fasted, healthy volunteers): 684 min
CC/C=C\C/C=C\C/C=C\C/C=C\C/C=C\CCCCOC(CC)C(=O)O (stereo not shown)  radioactivity concentration ([14C] label; male Wistar rat, kidney medulla; oral, 100 mg/kg, 4 h): 102 µg equiv/g

Excerpt of the above:
CC[C@H](C)[C@H](NC(=O)[C@@H]1CCCN1C(=O)CNC(=O)[C@H](Cc1ccccc1)NC(=O)[C@H](CC(N)=O)NC(=O)[C@H](CC(N)=O)NC(=O)[C@H](CO)NC(=O)[C@H](CO)NC(=O)[C@H](Cc1c[nH]cn1)NC(=O)[C@@H](NC(=O)[C@H](CC(C)C)NC(=O)[C@H](Cc1ccccc1)NC(=O)[C@H](CC(N)=O)NC(=O)[C@H](C)NC(=O)[C@H](CC(C)C)NC(=O)[C@H](CCCNC(=N)N)NC(=O)[C@H](CCC(N)=O)NC(=O)[C@@H](NC(=O)[C@H](C)NC(=O)[C@@H]1CSSC[C@H](NC(=O)[C@@H](N)CCCCN)C(=O)N[C@@H](CC(N)=O)C(=O)N[C@@H]([C@@H](C)O)C(=O)N[C@@H](C)C(=O)N[C@@H]([C@@H](C)O)C(=O)N1)[C@@H](C)O)C(C)C)C(=O)N[C@@H](CC(C)C)C(=O)N[C@@H](CO)C(=O)N1CCC[C@H]1C(=O)N[C@H](C(=O)N[C@@H](CC(N)=O)C(=O)N[C@H](C(=O)NCC(=O)N[C@@H](CO)C(=O)N[C@@H](CC(N)=O)C(=O)N[C@H](C(=O)N[C@@H](Cc1ccc(O)cc1)C(N)=O)[C@@H](C)O)C(C)C)[C@@H](C)O  collision cross section (ion mobility mass spectrometry; ammonium acetate; pH 7.5, monomer ion charge +2): 551.8 ± 3.1 Å²
CN1CC[C@H](c2c(O)cc(O)c3c(=O)cc(/C=C/c4c(Cl)cccc4Cl)oc23)[C@H](O)C1  dissolved drug (USP paddle dissolution; phosphate buffer, 0.25% SLS; 60 min, pH 6.8): 84%
